Measured values of several laboratories.
Numbered parts are unrelated; each lists some results of a single study. Positions count from the first letter of the parent shown.

Sample 1
Target: Interferon regulatory factor 3, full length, phosphomimetic (IRF3, Homo sapiens, UniProt Q14653, residues 1-427, S386D/S396D/S398D/S402D/T404D/S405D)
UniProt Q14653, sequence (whole entry, unmodified, looked up): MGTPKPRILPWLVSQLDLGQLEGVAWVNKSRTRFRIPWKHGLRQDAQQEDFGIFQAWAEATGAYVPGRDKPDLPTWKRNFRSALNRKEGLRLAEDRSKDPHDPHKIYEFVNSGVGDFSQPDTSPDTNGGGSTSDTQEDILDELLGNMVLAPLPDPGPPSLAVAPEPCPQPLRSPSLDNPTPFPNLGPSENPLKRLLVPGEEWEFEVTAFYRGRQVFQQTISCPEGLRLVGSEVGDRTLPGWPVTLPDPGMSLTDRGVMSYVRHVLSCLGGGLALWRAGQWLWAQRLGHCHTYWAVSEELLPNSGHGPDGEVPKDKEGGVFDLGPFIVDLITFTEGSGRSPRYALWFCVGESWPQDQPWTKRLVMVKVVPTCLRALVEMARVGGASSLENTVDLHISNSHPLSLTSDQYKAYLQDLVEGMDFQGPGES
Technique: protein-binding microarray
Form: double-stranded DNA, one strand shown
Matrix: in vitro
Concentration: 2540 nM top
Notes: 60-bp whole probe
With: salmon DNA 0.4 mg/ml
Reference: random background probes
Direction: higher = stronger binding
Constant ends, left off below: GCCTAGCAC … GTCTTGATTCGCTTGACGCTGCTG
| Oligonucleotide | fitted relative affinity [z-score] |
| --- | --- |
| TTAGAACTGAAACTGGATTAGTGCTAG | 1.68 |
| TCAGCTCTAGGTTCTCTGAAGGTGCTA | -0.359 |
| TTAGATTTCGGACTGGGTTAGTGCTAG | 1.44 |
| TTAGCTTTCCTTTCCCTTTAGTGCTAG | 8.6 |
| GACGGACTTCTTTTCCTGACGTGCTAG | 0.401 |
| TTAGGTACCGACTATCGGTTAGTGCTA | 1.8 |
| TTAGGTATCGGGTATCGGCTAGTGCTA | 1.12 |
| GACGGTATCGGTTTTCGGGACGTGCTA | 5.48 |
| TTAGGTCACCTACTGCTTTAGTGCTAG | 0.311 |
| TCATAAATCTTTTTCCCACTGTGCTAG | 1.01 |
| GACGATTTAGGGACTGGAGACGTGCTA | 0.153 |
| GACGAATTGGGGACTGGAGACGTGCTA | -0.511 |
| ATTTTAATCACATATACACTGGTGCTA | 1.53 |
| TCAAATAATCTTTTCACACTGTGCTAG | 0.52 |
| TTAGGAATGGGTATCGGTTAGTGCTAG | 0.696 |
| TTTTCTCTTATTCTAACAGCGTGCTAG | 3.02 |
| ATAGATTCCAGTTTCGATTAGTGCTAG | 4.94 |

Sample 2
Target: RNA binding protein fox-1 homolog 2, RRM domain, GST-SBP tag (RBFOX2, Homo sapiens, UniProt O43251-10, residues 100-194)
Technique: RNA Bind-n-Seq
Form: RNA
Matrix: in vitro
Concentration: 365 nM
Notes: natural RNA segment, single round, ends assumed
Reference: no-protein control
Direction: higher = stronger binding
Constant ends, left off below: GGGAGUUCUACAGUCCGACGAUC … UGGAAUUCUCGGGUGCCAA
Target sequence (chain): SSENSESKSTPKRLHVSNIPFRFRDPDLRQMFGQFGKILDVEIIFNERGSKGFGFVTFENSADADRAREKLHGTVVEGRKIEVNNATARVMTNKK
| Oligonucleotide | RBNS enrichment (R) |
| --- | --- |
| AGGACAUGAGCCUGUCUAGUGUUUCCUAGGAAAGGGAUAGUUUUCUGUUGGUAUAGCAUUUUCUAAGGAAACUACUCACUCAGCGCCUACCCUUUGUUAGAAGUGUUGAC | 0.445 |
| UGUUUCUAAACUGCUGCUUUGUCUAUUUCCUGCAUUUUAUAGUGAAACUACUAAACAUAAAUAGAUUUUCACUACCACAAAGAAUGAGAAUUAAUGACACUGAAGGAAUG | 0.379 |
| AAUGCUUCUGGAGACGGAAACAUAUUCCCUACAGGGAAUGAAGCUUCUCAGAGAAACUGCCGAAAGUUGCAUUAAAAAAAAUAAAAAGUACAGAAGAAAUAGUUGCCACU | 0.59 |
| AUUUAUUCAGGCUAAACCUACAAUAUGUGAAUCAACCCGUUUAAUGAAUCCUGGGACAUGCUGAUGACUGUAAACUGGCCUUUCCGAGUCAUAGAAAAAAAAAAGAUGGC | 0.503 |
| UAGUGUCAUUCCUGGAAUUAACUUAUCAUGCAUUUGCUUAGUUAAAGUCAAAAUUUAAUAUUGGUUCUUUAACUGAAAUAUUUAAUUGAGCACUUACAUCUCUAUUGCUU | 0.401 |
| AUUGUGUGUGCGUGCGUGUGUGAUGUCAGGCUGCCACGUAAAACUUCAGAGAAAAAUCUUAAAAGCAGACCAUCCUUUUUUGCAUGCUCUAUUCUAAGUAGAAUGUUCAA | 9.66 |
| AGACGCUGUUUUCACCCCUUCCUCCUCCUAGCCUCUCUCCCAAAAAGUAAAACACAAUGCUGAAGAAUAUUGGUGUGACUUUUGAAUGUUACCGAUUGGAUGUAAAAUGC | 1.27 |
| UGAUUCCUUUUUUCAAAAUCCAAAAAGAAAUGAUGUUGGAGAAGGGAAGUUGAACGAGCAUAGUCCAAAAAGCUCCUGGGGCGUCCAGGCCGCGCCCUUUCCCCGACGCC | 0.231 |
| CAGAAUUCUAUAGCAUGAAGGUUAACCUUGUCUCCAUUCAUGGGGGUUUAAUUGCCCUAUUGCUCAAUGGUGUUCUUGCAUGGGGAUUCUCCAGUCCUACAGAUGAAAGC | 4.65 |
| CCAGCCGGCGGACUGUGCUGUUUCCUCCGCCCCCACUCCCGUGUUUUCUGACCUCCUGCCUGAGUUUGGGGUAUUUAUAGACUAUUAAUUUUCUGACUGAGCCAAUAGUG | 0.525 |
| UUGUAGUUGCCUUUGGGUUUUUGUCUUUGUUUUUCUGUCUUUUGUUAAAUCUGCUCUUAAAGUUCACCAAAGCUAAGACAGUUGCCAGGGCAGACAGGAGUCCAGGCUCC | 0.345 |
| GGAUGAGCUGAGUGGAGCCAGGCUGGCCCAGAGCUGAGAUGGGAGUGCGGUACAAUCUGGAGCCCACAGCUGUCGGUCAGAACCUCCUGUGAGACAGAUGGAACCUUCAC | 0.708 |

Sample 3
Target: Histone acetyltransferase KAT6A, winged helix 2, GST fusion (KAT6A, Homo sapiens, UniProt Q92794, residues 85-181)
Technique: protein binding microarray
Form: double-stranded DNA, one strand shown
Matrix: in vitro
Concentration: not given
Notes: 8-mer, flanks averaged, mean of 2 arrays, mostly near background
Reference: not given
Direction: higher = stronger binding
Residues (chain): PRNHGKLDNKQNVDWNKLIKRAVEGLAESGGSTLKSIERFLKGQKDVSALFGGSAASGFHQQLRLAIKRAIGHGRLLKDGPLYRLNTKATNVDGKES
| Oligonucleotide | E-score |
| --- | --- |
| ACATTTTC | -0.0522 |
| AATATTGC | 0.0415 |
| AATCGTTG | -0.0975 |
| ATATTTTG | 0.174 |
| CAGAGCTA | -0.119 |
| GCATAAGA | -0.0741 |
| AACGTAGG | -0.187 |
| AGTGGACG | 0.0215 |
| CTAGTCAC | -0.0624 |
| ATGAGGTG | -0.0939 |
| AAGGTATG | -0.109 |
| AATTTTAC | 0.0813 |
| CGCGAGCC | 0.109 |
| AGACCAGC | -0.0534 |
| AATCCCCG | 0.0483 |
| ATCTGGCG | 0.178 |
| ACGTTTTC | -0.136 |
| ACCTCAAG | -0.00214 |
| CCCGTGGC | 0.11 |
| CCCCTAAC | -0.0469 |
| AAGAAGCC | 0.144 |
| ACATGACA | -0.0737 |
| AAACCGCG | 0.196 |
| AATGTCAA | -0.0785 |
| ACGGTGCC | 0.229 |

Sample 4
Target: CCND3, cyclin fold, Cln2 fusion (human)
Technique: yeast growth competition, sequencing
Matrix: yeast
Notes: weak parent motif
Reference: not given
Direction: higher = stronger binding
Starting sequence: FZR1 docking peptide (human); QDYERRLLRQIVI; partner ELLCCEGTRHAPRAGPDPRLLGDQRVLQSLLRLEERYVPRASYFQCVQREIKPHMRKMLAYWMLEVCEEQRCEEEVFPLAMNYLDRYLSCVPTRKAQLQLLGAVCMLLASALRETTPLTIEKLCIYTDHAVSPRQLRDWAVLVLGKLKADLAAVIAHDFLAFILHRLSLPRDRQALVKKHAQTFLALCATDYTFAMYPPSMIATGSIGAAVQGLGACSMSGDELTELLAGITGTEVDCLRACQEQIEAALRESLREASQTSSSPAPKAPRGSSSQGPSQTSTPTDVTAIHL
| Variant | normalised enrichment score |
| --- | --- |
| QDYERALLRQIVI [R6A] | 0.117 |
| QDYERRLLRAIVI [Q10A] | 0.0963 |
| QDYEKRLLRQIVI [R5K] | 0.16 |
| QDYERRLARQIVI [L8A] | 0.138 |
| QDYEARLLRQIVI [R5A] | 0.24 |
| QDYERRLLRQAVI [I11A] | 0.216 |
| QAYERRLLRQIVI [D2A] | 0.156 |

Sample 5
Target: RING finger protein unkempt homolog, zinc fingers 1-6, GST-SBP tag (UNK, Homo sapiens, UniProt Q9C0B0, residues 30-357)
UniProt Q9C0B0, sequence (30-357, looked up): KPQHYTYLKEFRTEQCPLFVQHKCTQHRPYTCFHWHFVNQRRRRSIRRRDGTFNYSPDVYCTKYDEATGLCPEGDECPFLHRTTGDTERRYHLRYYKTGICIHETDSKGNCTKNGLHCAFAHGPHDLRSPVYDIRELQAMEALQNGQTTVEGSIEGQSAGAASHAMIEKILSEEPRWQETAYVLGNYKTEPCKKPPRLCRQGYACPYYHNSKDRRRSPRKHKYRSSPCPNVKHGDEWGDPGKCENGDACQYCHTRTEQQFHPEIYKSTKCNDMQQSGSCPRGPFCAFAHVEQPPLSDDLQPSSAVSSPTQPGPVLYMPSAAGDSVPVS
Technique: RNA Bind-n-Seq
Form: RNA
Matrix: in vitro
Concentration: not given
Notes: RNA with constant flanks, human and mouse sites, ends assumed
Reference: input RNA pool
Direction: higher = stronger binding
Constant ends, left off below: GGGAGUUCUACAGUCCGACGAUC … CAACAGAGGAUUGAGCAUCA
| Oligonucleotide | bound/input enrichment [ratio] |
| --- | --- |
| CAAAAUCCAGAACUUUAUAUACGGGAGAGUGUAAAAGGAUCGUUGGACAGGAAGAAGUUAGAGCAACUGUACACUAGAUACAAAGACCCUCAGGAUGAAAAUAAAAUUGGAAUAGAUGGU | 3.23 |
| CAAAAAAGAUAUGAGGAAGAGCUCCUCCCCUUCCUUGAGUAACUGCAACUCCGUUCUUGCUAACAAAAUAUUUGGAAUUCCACUUGAUGAGCUGCAGCAGGGAGGACAUCCAGACAAUGA | 0.167 |
| GUACACUAUAUCUACACUUACUCAUUAUUUAAAAAGAAUAAUGAAAAAUCUAGAUCAAUUCUUCAAUUUGAUUGAACUGUUCAGCCUUUUCAAGAUUUCUUUAUUUACAAAUGAUUACAU | 0.577 |
| UCCUGGAACCUGUGACAAAGUCAAUAACAUCCACCCAACUGUCCAUACAAAGACUGAUAAUUCUGUUGCCUCUUCACCAUCUUCAGCCAUUUCCACAGCAACACCUUCUCCUAAGUCCAC | 0.313 |
| AUCAAUGUGAAGAAGGGGAGCAUCUCGGGGAUUACCAUGGUGCUGGCAUGCUACGUGCUCUUUAGCUACUCCUUUUCCUACAAGCAUCUCAAGCACGAGCGGCUCCGCAAAUACCACUGA | 0.188 |
| GAUUACAAGGGGCAGAAACUAGCUGAACAGAUGUUUCAGGGGAUCAUUCUUUUUUCUGCAAUAGUUGGGUUUAUCUACGGGUACGUGGCUGAACAGUUUGGGUGGACUGUCUACAUAGUU | 0.575 |
| GCAUGUUCUUAUGGACAUUAUGAAGUUGCAGAACUUCUUGUUAAACAUGGAGCAGUAGUUAAUGUAGCUGAUUUAUGGAAAUUUACACCUUUACAUGAAGCAGCAGCAAAAGGAAAAUAU | 0.667 |
| AUGUAUGUCUCCAUUCCUGUCUAUCUGUCUGAGUGCCUCAUUUUGUAAUCAUGACAAUCCUAUAGAACCUUAGAUGGAAAUGAGUGACUAAGGCCUAGGGGUGUCUGUUUAGGAGUGAAU | 0.429 |
| CACCACUUCUAUGAUUUUGAAAGAGAUGCAUAUCUUUUGCAACGAAUGGAAGAAUUUAUUGGAACAGUAAGAGGUAAAGCAAUGAAAAAAUGGGUUGAAUCCAUCACUAAAAUAAUCCAA | 0.199 |
| AUAUCCAGUGGCCUAGAAUUUGUAUCCCACAACCCACCCAGUGAAGCAGCUACUCCUCCAGUAGCAAGGACCAGUCCCUCGGGGGGAACGUGGUCAUCAGUGGUCAGUGGGGUUCCAAGA | 0.116 |
| GGCUACCUGGUCUCCGUGGAUGGCUACAUGAACAUGCAGCUUGCAAAUACAGAAGAGUACAUAGAUGGGGCGCUGUCUGGACAUCUGGGCGAAGUUCUAAUAAGGUGUAAUAAUGUCCUC | 0.13 |

Sample 6
Target: ABI1, truncated, D143A, DHFR fusion (Arabidopsis thaliana)
Technique: DHFR PCA, deep sequencing
Matrix: yeast
Notes: methotrexate growth selection, single substitutions
With: (+)-ABA 200 µM
Reference: wild-type fitted maximum
Direction: higher = stronger binding
Starting sequence: PYL1, truncated, DHFR fusion (Arabidopsis thaliana); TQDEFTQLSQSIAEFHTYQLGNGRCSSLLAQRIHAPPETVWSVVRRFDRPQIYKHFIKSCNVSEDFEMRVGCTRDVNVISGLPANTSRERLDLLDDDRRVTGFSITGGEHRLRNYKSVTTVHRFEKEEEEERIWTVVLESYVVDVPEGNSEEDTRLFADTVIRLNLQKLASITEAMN
| Variant | relative binding score [%] |
| --- | --- |
| R123M | 103 |
| E64V | 99.8 |
| D48V | 17.8 |
| T101F | 109 |
| D65A | 100 |
| L138V | 84.3 |
| D96Q | 58.4 |
| L29G | 3.76 |
| K126C | 103 |
| T106I | 112 |
| L164C | 106 |
| F5D | 83.7 |
| K168T | 101 |
| A84R | 9.3 |
| N165I | -6.46 |
| R74H | 4.31 |

For quick reference, copied from above (sample 4):
| Variant | normalised enrichment score |
| --- | --- |
| QDYERRLARQIVI [L8A] | 0.138 |
| QDYEARLLRQIVI [R5A] | 0.24 |
| QDYERRLLRQAVI [I11A] | 0.216 |
| QAYERRLLRQIVI [D2A] | 0.156 |
